Published values from different studies.
Values joined by “and” are separate records of one study, mostly repeats; a detail may differ. ± gives the spread as reported.

Cc1nn(-c2nc3c(F)cc(F)cc3s2)c(O)c1C(c1ccc(C(F)(F)F)cc1)c1c(C)nn(-c2nc3c(F)cc(F)cc3s2)c1O — plasma concentration (ICR mouse; oral, 50 mg/kg, 4.00 h): 42700 ng/mL and 31800 ng/mL and 30400 ng/mL
C[C@]12C[C@H](c3ccc(S(C)(=O)=O)cc3)C3=C4CCC(=O)C=C4CC[C@H]3[C@@H]1CC[C@@]2(O)C(F)(F)C(F)(F)F — plasma concentration (item: compound (parent); healthy human volunteers, pooled plasma; oral, 5 mg daily, day 28, 12 h): 15.6 ng/mL
C=C[C@]1(C)C[C@@H](OC(=O)CSc2ccc(NC(=O)c3ccco3)cc2)[C@]2(C)[C@H](C)CC[C@]3(CCC(=O)[C@H]32)[C@@H](C)[C@@H]1O — plasma concentration (Mycoplasma gallisepticum-infected chickens, plasma; intramuscular, 40 mg/kg, 0.5 h): 4920 ng/mL and 5440 ng/mL and 4440 ng/mL and 5320 ng/mL and 4800 ng/mL and 6080 ng/mL and 5160 ng/mL and 5520 ng/mL
CCC(=O)N(C)c1ccc(Cl)c(Cl)c1 — plasma concentration (LC-MS/MS; mouse C57BL/6 female, plasma; intravenous, 2 mg/kg, 0.083 h): 846 ng/mL and 866 ng/mL
Cc1noc(C)c1Cn1cc(N2C(=O)CN(Cc3cccc(OS(=O)(=O)O)c3)C2=O)cn1 — plasma concentration (rat Sprague-Dawley male, plasma; intravenous, 1 mg/kg of parent drug, 0.08 h): 3380 ng/mL
CC(CCC(=O)NCC(=O)O)C1CCC2C3CCC4CC(OC5OC(C(=O)O)C(O)C(O)C5O)CCC4(C)C3CC(O)C12C (stereo not drawn) — plasma concentration (healthy human volunteers, plasma; dose not given, 0 h, control phase, probe drugs alone): 150 ± 53 nM
O=C(NS(=O)(=O)c1cccs1)c1cc2ccccc2n1Cc1ccc(Br)c2ccccc12 — plasma concentration (Sprague-Dawley rat, male; oral, dose not given, 0.5 h): 4210 ng/mL
Cc1noc(C)c1Cn1cc(N2C(=O)CN(Cc3cccc(O[C@@H]4O[C@H](C(=O)O)[C@@H](O)[C@H](O)[C@H]4O)c3)C2=O)cn1 — plasma concentration (Sprague-Dawley rat, male; oral, 10 mg/kg of parent drug, 2 h): 955 ng/mL
C[C@H](CCC(=O)NCC(=O)O)[C@H]1CC[C@H]2[C@@H]3[C@H](O)C[C@@H]4C[C@H](OS(=O)(=O)O)CC[C@]4(C)[C@H]3CC[C@]12C — plasma concentration (healthy human volunteers, plasma; dose not given, 0 h, baseline phase, no drug): 91.8 ± 20.9 nM

Repeated from above:
C[C@H](CCC(=O)NCC(=O)O)[C@H]1CC[C@H]2[C@@H]3[C@H](O)C[C@@H]4C[C@H](OS(=O)(=O)O)CC[C@]4(C)[C@H]3CC[C@]12C — plasma concentration (healthy human volunteers, plasma; dose not given, 0 h, baseline phase, no drug): 91.8 ± 20.9 nM
